Published values of several laboratories.
Each line is one published result; not all experiments were run side by side. Numbers after ± are the reported error.
CHRM1: Muscarinic acetylcholine receptor M1 (CHRM1, Homo sapiens, UniProt P11229)
Sequence of UniProt P11229 (whole entry, looked up): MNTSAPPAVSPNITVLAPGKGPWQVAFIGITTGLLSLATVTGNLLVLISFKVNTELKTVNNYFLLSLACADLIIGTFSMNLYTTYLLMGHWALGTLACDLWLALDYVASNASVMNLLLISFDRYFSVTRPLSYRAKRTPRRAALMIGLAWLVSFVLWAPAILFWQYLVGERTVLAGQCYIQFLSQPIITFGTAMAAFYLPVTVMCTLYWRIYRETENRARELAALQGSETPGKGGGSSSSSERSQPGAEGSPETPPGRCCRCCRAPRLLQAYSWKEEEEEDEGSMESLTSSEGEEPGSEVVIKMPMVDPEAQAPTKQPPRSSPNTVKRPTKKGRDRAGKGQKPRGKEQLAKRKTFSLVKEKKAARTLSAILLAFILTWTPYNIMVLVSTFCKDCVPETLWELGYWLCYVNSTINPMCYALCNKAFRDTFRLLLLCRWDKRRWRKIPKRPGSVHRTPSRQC
T1: DNA G4, G-quadruplex (Homo sapiens); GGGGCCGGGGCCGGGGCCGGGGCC
Sequence of UniProt Q13507 (whole entry, looked up): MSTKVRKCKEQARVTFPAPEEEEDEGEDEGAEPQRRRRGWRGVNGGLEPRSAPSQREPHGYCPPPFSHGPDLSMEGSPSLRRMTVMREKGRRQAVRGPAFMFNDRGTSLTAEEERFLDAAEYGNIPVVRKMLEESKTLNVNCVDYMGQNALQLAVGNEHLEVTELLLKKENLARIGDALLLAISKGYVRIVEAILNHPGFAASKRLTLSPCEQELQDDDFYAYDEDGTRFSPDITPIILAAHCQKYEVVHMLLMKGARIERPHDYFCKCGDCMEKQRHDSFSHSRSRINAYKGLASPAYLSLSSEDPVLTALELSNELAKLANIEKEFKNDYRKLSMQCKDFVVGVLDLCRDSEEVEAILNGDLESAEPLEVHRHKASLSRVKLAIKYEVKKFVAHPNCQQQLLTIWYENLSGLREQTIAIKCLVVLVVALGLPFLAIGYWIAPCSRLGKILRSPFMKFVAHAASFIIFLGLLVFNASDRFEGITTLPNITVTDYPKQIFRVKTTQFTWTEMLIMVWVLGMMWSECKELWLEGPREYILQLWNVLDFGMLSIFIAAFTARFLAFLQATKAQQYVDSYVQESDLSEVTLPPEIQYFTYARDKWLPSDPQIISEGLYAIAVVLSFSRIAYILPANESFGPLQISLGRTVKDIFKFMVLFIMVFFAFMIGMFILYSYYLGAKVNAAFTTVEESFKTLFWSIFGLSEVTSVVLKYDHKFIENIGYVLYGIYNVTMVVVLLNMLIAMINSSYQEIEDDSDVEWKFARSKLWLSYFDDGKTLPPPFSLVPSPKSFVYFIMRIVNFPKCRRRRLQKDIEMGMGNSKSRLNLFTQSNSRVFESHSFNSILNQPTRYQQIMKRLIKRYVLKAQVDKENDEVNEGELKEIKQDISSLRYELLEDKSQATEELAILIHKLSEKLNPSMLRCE
Sequence of UniProt P31424 (whole entry, looked up): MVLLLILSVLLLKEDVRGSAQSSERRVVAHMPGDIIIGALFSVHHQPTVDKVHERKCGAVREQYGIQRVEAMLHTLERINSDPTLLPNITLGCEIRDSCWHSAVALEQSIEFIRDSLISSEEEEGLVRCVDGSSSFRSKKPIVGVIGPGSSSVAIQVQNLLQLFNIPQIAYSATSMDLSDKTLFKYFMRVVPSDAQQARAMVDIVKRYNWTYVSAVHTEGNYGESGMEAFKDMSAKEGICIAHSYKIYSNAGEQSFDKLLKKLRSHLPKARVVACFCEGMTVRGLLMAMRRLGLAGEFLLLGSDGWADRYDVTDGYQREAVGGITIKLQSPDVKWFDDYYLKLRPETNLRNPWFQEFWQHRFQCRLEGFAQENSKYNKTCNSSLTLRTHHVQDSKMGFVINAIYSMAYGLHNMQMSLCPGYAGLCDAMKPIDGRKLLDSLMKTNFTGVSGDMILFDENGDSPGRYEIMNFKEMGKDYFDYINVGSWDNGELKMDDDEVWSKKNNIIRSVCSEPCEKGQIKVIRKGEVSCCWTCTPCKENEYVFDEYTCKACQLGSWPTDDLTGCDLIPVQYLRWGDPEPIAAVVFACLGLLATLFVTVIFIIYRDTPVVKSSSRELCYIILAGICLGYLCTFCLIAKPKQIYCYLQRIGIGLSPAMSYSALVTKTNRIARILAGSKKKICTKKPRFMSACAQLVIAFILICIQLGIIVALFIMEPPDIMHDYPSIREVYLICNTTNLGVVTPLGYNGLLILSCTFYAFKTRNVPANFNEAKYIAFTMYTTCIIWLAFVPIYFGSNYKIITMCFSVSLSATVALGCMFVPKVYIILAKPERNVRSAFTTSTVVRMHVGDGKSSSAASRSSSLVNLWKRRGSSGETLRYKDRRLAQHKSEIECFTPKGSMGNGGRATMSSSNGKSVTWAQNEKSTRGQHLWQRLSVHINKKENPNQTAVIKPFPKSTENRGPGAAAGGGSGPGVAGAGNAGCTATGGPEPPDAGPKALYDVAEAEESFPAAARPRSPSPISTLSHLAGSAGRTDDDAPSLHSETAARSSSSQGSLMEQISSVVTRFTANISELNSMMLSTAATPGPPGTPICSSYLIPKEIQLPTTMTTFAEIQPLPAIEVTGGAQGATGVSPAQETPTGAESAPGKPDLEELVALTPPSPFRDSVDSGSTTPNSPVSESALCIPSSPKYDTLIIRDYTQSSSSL
Sequence of UniProt Q92731 (whole entry, looked up): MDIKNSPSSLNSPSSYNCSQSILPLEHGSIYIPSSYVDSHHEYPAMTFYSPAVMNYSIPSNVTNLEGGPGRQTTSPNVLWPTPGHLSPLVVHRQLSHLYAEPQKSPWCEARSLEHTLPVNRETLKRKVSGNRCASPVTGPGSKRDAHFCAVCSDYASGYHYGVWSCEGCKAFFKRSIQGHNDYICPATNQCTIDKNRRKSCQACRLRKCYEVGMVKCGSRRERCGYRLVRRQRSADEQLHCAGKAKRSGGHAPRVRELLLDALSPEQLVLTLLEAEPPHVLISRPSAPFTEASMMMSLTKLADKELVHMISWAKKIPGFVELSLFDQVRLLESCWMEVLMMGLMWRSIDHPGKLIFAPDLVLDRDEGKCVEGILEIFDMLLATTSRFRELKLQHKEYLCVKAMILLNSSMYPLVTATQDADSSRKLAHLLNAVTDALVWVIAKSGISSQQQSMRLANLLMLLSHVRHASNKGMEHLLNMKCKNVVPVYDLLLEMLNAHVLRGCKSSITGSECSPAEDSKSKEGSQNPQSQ
Sequence of UniProt Q8K0E8 (whole entry, looked up): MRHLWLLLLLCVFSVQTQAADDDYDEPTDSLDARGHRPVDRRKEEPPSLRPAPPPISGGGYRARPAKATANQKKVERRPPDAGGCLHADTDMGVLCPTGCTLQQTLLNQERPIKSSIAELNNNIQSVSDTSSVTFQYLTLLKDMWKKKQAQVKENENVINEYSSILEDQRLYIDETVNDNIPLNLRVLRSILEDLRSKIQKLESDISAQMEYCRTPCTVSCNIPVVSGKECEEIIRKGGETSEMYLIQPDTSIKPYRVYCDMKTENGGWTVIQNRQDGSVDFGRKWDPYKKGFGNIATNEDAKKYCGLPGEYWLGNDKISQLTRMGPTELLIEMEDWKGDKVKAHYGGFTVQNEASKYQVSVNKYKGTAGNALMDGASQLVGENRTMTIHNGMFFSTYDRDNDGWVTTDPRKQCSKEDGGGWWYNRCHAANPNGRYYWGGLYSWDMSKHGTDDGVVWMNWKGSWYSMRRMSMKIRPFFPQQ
Sequence of UniProt P22309 (whole entry, looked up): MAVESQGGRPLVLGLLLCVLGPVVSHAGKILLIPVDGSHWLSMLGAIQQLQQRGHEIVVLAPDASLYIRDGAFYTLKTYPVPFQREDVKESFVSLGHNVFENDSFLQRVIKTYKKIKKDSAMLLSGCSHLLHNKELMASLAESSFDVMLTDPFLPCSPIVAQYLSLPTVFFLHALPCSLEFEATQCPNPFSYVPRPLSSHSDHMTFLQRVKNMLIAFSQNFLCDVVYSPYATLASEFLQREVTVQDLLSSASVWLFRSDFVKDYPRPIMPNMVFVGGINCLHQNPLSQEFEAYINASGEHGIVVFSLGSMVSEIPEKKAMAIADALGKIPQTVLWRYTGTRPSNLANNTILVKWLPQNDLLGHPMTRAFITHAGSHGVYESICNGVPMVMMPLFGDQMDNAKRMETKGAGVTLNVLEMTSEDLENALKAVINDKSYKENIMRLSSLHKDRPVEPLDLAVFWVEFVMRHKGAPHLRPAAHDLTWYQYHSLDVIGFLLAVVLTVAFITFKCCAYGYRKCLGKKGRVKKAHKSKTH
Sequence of UniProt P08173 (whole entry, looked up): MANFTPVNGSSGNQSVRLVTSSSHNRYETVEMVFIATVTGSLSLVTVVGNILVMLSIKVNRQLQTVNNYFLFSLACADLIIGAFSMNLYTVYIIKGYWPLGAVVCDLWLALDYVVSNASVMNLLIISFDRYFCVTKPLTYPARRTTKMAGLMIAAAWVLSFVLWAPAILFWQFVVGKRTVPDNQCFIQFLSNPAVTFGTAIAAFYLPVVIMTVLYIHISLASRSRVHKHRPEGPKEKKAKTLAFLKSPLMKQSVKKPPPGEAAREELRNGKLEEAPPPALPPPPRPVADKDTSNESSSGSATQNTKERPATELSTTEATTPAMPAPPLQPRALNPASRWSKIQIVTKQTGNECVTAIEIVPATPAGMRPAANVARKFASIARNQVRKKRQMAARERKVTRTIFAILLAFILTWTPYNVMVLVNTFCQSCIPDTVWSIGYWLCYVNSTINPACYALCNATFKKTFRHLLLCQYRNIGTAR
Sequence of UniProt Q8VCM7 (whole entry, looked up): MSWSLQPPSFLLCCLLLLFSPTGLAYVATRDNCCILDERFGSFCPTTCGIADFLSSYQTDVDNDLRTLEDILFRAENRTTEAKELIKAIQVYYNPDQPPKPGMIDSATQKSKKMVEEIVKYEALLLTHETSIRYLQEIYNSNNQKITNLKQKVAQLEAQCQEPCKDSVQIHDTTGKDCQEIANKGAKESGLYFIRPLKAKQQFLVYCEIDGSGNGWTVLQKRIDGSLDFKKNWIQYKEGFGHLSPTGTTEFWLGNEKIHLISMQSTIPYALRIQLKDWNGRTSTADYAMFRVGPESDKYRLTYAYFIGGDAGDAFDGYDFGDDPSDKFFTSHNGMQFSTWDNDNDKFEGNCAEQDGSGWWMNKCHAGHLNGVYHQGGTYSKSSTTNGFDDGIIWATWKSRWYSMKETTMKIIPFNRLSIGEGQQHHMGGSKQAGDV

Substance | target or system | test | system | setting | how to read | quantity | value
COc1c2c(c(O)c3c(=O)c4cccc(O[C@@H]5OC(C(=O)O)=C[C@H](O)[C@H]5O)c4oc13)-c1c(cc(CC(C)=O)c(C(=O)O)c1O)CC2 | T1, DNA G4, G-quadruplex (Homo sapiens) | fluorescence intensity titration | – | pH 6.8, KCl 8 mM, one site with Hill slope | – | Kd | 3000 µM
COc1ccc(C)c2sc(NS(=O)(=O)c3cccc(C)c3)nc12 | Muscarinic acetylcholine receptor M4 (CHRM4, Homo sapiens, UniProt P08173) | calcium mobilization, positive allosteric modulator | CHO expressing hM4 and Gqi5 | concentration not given, added: acetylcholine EC20 | – | activity | inactive
CCCCN1CCN(C(C)C(=O)Nc2c(C)csc2C(=O)OC)CC1 (stereo not shown) | Sodium channel protein type 10 subunit alpha (SCN10A, Homo sapiens, UniProt Q9Y5Y9) | cell membrane chromatography | – | – | higher = stronger binding | capacity factor k′ | 122
Brc1ccc(-c2cc3ccccc3[nH]2)cc1 | RAW264.7 | sulforhodamine B | – | 50 µM, 20 h | reference: vehicle | viability | 69.3 ± 2.7%
N#Cc1cnc(Nc2nc3ccccc3o2)nc1-c1ccc(F)cc1 | Metabotropic glutamate receptor 5 (Grm5, Rattus norvegicus, UniProt P31424) | calcium mobilization, negative allosteric modulator | – | added: glutamate EC80 | reference: maximal glutamate response | maximal response | 1.7 ± 0.1%
COc1ccc(COc2ccccc2-c2cc(=O)n(C3CCCCC3O)cn2)cc1 (stereo not shown) | CHRM1 | allosteric agonist, IP1 accumulation | CHO-M1 cells | 1 µM, unit not given | reference: maximum ACh response | change in baseline activity | -4.8 ± 3.9
O=C(O)CO | Transcriptional regulator GlcR (Paracoccus denitrificans, UniProt A1BAC0) | inducer, in vitro transcription fluorescence | – | 10 mM | reference: no effector | transcription derepression | 9.4 fold
Carbidopa | Lysine-specific demethylase 4E (KDM4E, Homo sapiens, UniProt B2RXH2) | FDH-coupled | – | – | reference: FAS 20 µM over 2.5 µM | IC50 ratio | 3.9
CCOC(=O)C1=C(C)NC2=C(C(=O)CC(C)(C)C2)C1c1ccc(-c2ccccc2)cc1 (stereo not shown) | HEK293T (HA-TGFBR2-mCherry) | total receptor level, degrader, flow cytometry | – | – | – | IC50 | 1.31 µM
CCN(c1ccccc1Cl)S(=O)(=O)C1CC2OC1C(c1ccc(O)cc1)=C2c1ccc(O)cc1 (stereo not shown) | Estrogen receptor beta (ESR2, Homo sapiens, UniProt Q92731) | reporter gene, antagonist | HepG2 | added: estradiol 10 nM | reference: E2 response, negative is inverse agonism | efficacy | 3 ± 3%
O=C(Nc1ccc(-n2nc(C(F)(F)F)cc2C(F)(F)F)cc1)c1ccncc1F | Short transient receptor potential channel 3 (TRPC3, Homo sapiens, UniProt Q13507) | TRPC3 receptor-operated current, inhibitor, patch clamp | HEK293 transiently expressing TRPC3 | 3 µM, added: carbachol maximal activation | – | peak current | -9.5 ± 2.66 pA/pF
CN(C)C(=O)c1ccc(COc2ccccc2-c2cc(=O)n(C3CCCCC3O)cn2)cc1 (stereo not shown) | CHRM1 | allosteric agonist, IP1 accumulation | CHO-M1 cells | 10 µM, unit not given | reference: maximum ACh response | change in baseline activity | 38 ± 2.4
GGSHPSRPRAG (99mTc-labelled) | Fga/Fgb/Fgg (Mus musculus, UniProt E9PV24+Q8K0E8+Q8VCM7) | – | peptide, heparinized mouse, carotid thrombosis, injured carotid clot | 3 µCi/g, 2 h | – | uptake | 3.4 ± 1.6 %ID/g
O=c1c(O)c(-c2ccc(O)c(O)c2)oc2cc(O)cc(O)c12 | UDP-glucuronosyltransferase 1A1 (UGT1A1, Homo sapiens, UniProt P22309) | enzyme activity, inhibitor | – | 50 µM | – | remaining activity | < 8.4%
Cn1ncc2ccc(COc3ccccc3-c3cc(=O)n(C4CCCCC4O)cn3)cc21 (stereo not shown) | CHRM1 | allosteric agonist, IP1 accumulation | CHO-M1 cells | 10 µM, unit not given | reference: maximum ACh response | change in baseline activity | 73.5 ± 1.8
CC(C)[C@H](NC(=O)[C@@H]1CCCN1C(=O)[C@H](CCCNC(=N)N)NC(=O)[C@H](CS)NC(=O)[C@H](Cc1c[nH]c2ccccc12)NC(=O)[C@H](CCCNC(=N)N)NC(=O)[C@@H](Cc1ccccc1)NC(=O)[C@H](Cc1c[nH]cn1)NC(=O)[C@H](CCC(=O)O)NC(=O)[C@H](CS)NC(=O)[C@H](CS)NC(=O)[C@H](CCCCN)NC(=O)[C@@H]1CC(=O)N[C@@H](CCCNC(=N)N)C(=O)N[C@@H](C)C(=O)N[C@@H](CC(=O)O)C(=O)N[C@H](Cc2ccc(O)cc2)C(=O)N1)C(N)=O [technetium-99m labelled] | – | – | C57 mice, stomach | intravenous, 0.037 MBq, 2 h | – | tissue uptake | 1.61 ± 0.35 %ID/g
FC(F)(F)Oc1ccc(-c2cc3ccccc3[nH]2)cc1 | RAW264.7 | NO release, inhibitor, Griess | – | 50 µM, 20 h, LPS-stimulated | – | inhibition | 31.2%
CCCCn1cc(-c2ccc(COc3ccccc3-c3cc(=O)n(C4CCCCC4O)cn3)cc2)cn1 (stereo not shown) | CHRM1 | positive allosteric modulator, IP1 accumulation | CHO-M1 cells | 1 µM, 60 min, 37 °C, added: ACh | reference: ACh alone, higher = stronger potentiation | ΔpEC50 of ACh | 1.49 ± 0.1 log units
DYKDEDLL | anti-FLAG M2 antibody | antibody binding, on-chip peptide display | peptide | 45 min, 25 °C | – | limit of detection | 0.14 nM
